Results gathered from unrelated publications.
Each numbered part is a random draw from the data of one study; scales do not carry over between parts. Changes are numbered by the printed parent chain.
Sequence of UniProt P57058 (whole entry, looked up): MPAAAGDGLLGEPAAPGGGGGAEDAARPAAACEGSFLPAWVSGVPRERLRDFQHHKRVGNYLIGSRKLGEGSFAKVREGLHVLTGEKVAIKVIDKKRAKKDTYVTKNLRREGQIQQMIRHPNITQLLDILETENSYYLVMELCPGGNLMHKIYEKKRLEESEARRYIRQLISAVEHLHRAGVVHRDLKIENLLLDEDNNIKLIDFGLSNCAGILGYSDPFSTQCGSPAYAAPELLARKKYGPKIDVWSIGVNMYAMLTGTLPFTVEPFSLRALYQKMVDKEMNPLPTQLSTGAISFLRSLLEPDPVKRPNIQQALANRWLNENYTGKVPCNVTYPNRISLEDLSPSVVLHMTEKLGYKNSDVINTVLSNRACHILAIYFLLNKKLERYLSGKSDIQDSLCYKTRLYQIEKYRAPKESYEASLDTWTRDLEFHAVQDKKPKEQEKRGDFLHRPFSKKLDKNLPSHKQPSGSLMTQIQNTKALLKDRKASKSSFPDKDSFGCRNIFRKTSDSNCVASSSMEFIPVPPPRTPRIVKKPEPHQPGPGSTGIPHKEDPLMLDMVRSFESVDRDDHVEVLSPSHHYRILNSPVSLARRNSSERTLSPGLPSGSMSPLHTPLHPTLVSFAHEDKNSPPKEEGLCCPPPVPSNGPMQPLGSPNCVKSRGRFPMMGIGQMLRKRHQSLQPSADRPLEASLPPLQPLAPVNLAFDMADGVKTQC
Sequence of UniProt P42336 (whole entry, looked up): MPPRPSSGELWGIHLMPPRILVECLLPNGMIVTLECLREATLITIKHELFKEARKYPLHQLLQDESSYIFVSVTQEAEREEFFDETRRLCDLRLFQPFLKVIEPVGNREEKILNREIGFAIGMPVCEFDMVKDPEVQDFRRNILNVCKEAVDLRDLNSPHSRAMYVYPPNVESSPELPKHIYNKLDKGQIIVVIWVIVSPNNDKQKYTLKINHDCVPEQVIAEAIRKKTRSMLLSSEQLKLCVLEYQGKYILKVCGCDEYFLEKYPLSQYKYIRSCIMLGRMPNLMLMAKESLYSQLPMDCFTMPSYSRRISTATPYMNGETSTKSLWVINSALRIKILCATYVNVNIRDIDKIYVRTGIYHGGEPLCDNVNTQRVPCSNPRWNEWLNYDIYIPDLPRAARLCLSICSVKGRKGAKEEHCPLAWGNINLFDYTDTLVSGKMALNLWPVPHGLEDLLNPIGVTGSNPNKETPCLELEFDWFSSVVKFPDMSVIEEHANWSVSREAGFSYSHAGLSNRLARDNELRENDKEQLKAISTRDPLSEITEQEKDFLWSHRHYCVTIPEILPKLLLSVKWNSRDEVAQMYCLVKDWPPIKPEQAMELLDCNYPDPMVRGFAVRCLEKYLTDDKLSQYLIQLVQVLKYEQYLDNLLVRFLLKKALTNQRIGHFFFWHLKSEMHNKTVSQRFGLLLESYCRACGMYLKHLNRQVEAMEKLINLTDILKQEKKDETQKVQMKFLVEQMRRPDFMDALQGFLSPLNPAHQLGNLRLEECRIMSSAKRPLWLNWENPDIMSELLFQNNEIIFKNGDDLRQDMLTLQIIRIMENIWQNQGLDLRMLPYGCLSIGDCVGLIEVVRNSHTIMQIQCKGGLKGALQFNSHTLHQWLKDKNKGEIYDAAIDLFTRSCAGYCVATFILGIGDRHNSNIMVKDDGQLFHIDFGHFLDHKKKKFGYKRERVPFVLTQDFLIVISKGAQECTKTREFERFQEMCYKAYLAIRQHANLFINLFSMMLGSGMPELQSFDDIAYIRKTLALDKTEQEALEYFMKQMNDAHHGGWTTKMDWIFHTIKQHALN
Sequence of UniProt Q00536 (whole entry, looked up): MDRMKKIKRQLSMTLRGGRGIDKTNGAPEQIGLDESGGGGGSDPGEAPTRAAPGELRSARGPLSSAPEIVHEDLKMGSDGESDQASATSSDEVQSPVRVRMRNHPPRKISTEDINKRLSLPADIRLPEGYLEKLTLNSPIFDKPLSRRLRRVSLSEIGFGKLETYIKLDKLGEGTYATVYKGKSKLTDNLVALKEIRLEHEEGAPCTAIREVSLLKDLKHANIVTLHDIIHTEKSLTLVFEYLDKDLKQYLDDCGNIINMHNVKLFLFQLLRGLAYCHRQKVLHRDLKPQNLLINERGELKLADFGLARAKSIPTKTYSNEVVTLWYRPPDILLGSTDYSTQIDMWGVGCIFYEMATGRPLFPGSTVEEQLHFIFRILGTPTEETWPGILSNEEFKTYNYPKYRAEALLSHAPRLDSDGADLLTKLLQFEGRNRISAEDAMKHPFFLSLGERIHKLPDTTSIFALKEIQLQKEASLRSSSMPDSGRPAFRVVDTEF
Sequence of UniProt Q06187 (whole entry, looked up): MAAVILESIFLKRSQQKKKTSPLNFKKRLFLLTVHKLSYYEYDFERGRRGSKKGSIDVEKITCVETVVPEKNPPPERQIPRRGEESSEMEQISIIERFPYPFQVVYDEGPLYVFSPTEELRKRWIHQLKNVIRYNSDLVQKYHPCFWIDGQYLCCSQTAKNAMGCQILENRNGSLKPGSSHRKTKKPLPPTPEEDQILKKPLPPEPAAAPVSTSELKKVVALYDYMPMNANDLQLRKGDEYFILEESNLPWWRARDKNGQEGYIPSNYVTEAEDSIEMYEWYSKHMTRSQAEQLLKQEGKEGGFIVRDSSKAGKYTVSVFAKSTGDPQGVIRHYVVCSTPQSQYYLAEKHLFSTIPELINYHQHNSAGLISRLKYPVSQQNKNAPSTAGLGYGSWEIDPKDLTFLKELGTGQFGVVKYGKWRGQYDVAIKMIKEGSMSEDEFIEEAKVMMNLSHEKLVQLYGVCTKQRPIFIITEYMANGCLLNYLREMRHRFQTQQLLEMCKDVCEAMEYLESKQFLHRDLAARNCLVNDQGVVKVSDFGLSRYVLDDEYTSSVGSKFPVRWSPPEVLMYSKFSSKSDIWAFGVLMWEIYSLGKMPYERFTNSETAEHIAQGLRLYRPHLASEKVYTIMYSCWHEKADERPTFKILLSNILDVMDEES
Sequence of UniProt P37173 (whole entry, looked up): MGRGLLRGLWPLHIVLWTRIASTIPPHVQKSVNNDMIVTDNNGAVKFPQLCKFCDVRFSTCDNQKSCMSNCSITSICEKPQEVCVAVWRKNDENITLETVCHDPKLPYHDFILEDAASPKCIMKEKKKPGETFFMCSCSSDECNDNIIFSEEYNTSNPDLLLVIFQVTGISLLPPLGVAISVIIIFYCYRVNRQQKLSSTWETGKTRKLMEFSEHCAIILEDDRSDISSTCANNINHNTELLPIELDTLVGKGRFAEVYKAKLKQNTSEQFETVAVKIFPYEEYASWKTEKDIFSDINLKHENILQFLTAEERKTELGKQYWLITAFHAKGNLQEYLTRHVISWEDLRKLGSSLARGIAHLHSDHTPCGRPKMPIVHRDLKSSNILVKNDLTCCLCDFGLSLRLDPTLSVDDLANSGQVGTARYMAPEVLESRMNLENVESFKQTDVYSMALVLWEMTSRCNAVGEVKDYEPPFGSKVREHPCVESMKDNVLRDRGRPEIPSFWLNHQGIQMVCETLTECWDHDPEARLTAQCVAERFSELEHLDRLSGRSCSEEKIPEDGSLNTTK
Sequence of UniProt O15264 (whole entry, looked up): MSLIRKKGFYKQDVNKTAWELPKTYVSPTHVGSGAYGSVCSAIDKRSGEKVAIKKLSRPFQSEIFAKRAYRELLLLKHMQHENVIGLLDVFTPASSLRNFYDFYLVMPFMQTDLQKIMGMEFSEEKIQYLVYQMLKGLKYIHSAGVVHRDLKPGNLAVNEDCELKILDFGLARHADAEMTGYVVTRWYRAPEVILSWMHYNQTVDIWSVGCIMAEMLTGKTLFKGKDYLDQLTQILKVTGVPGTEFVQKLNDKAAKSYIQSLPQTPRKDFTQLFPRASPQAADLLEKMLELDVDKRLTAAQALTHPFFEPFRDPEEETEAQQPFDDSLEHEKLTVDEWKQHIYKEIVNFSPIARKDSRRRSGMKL

Study 1 — technique: RNA Bind-n-Seq; form: RNA; matrix: in vitro; tested at: 1 µM; notes: whole 134-nt RNA, ends assumed; together with: 150 mM KCl; reference: input library; reading: higher = stronger binding
Target: Ras GTPase-activating protein-binding protein 1, RRM domain (G3BP1, Homo sapiens, UniProt Q13283)
Sequence of UniProt Q13283 (whole entry, looked up): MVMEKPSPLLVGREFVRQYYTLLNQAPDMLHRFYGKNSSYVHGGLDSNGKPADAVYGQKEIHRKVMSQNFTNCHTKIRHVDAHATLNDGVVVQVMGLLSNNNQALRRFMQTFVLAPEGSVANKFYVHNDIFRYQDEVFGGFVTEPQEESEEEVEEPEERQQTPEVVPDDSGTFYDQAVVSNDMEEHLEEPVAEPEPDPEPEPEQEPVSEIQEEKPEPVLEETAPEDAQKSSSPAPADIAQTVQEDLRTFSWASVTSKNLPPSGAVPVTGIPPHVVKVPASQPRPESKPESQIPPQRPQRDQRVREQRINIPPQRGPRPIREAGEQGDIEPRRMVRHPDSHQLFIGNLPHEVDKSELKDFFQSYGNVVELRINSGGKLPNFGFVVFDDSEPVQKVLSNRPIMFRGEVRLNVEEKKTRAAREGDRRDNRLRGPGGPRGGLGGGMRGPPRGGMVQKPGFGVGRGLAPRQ
Shared flanks, not repeated: GGGAGUUCUACAGUCCGACGAUC … UGGAAUUCUCGGGUGUCAAGG
`UCAAGUCCUGUGCUACACAUCGUAUGUACCGAAUCGGAAAGGAAAGGUUUUUGGAAAGUAUUAUGUUACGCCGUUCGGAUCUGCACUUCC` gave a log2 enrichment of -0.287.
The log2 enrichment of `CUCAAGUCCUGUGCUACACAUCGUAUGUACCGAAUCGGAAAGGAGGUUUUUGGAAAGUAUUAUGUUACGCCGUUCGGAUCUGCACUUCCA` is reported as -0.225.
`UGUGGCCGCAGGACGAGUACAUCGUGGAGUACUCACUAGAGUAUGGCUUCCUUCGCCUGUCGCAGGCCACCCGCCAGCGCCUGAGCAUCC` has a log2 enrichment of -0.247.
With `CACAGACAACACGCACCCACACAGACACAGAGGGAAGGGGUUGGGAAAGGGACAGGGUGCACAGCAGGGCGGGGUAGGACCCCAGCCCCU` the log2 enrichment was -0.147.
For `UUACUUUAGAGGAGGAUCUGAUGGAUAUGGCAGUGGACGUGGAUUUGGGGAUGGCUAUAAUGGGUAUGGAGGAGGACCUGGAGGUGGCAA`, the log2 enrichment was -0.73.
`GUCCUGUGCUACACAUCGUAUGUACCGAAUCGGGGUGGGGUUUGGGGUUUUUUUGGGGAAAGUAUUAUGUUACGCCGUUCGGAUCUGCAC` has a log2 enrichment of 1.07.
`CCUGUGCUACACAUCGUAUGUACCGAAUCGGGCCCCCCCGGGCCCCCCCGGCCCCCCCGGGAAAGUAUUAUGUUACGCCGUUCGGAUCUG` gave a log2 enrichment of -0.638.
`UCCUGUGCUACACAUCGUAUGUACCGAAUCGGGCCCCCCCGGCCCCCCCGGCCCCCCCGGAAAGUAUUAUGUUACGCCGUUCGGAUCUGC` has a log2 enrichment of -0.524.

Study 2 — target: CEBPA, bZIP domain (human); technique: DHFR protein complementation; matrix: yeast; reference: wild-type JUN-FOS pair; reading: higher = stronger binding
Notes: single substitutions, most at no-binding floor
Starting sequence: JUN, bZIP domain (human); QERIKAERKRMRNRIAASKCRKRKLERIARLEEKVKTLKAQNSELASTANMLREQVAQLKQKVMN; partner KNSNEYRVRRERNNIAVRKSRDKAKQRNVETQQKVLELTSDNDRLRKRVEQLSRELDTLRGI
For `S47F`, the binding fitness was -1.4 natural log.
For `Q55A`, the binding fitness was -1.48 natural log.
`R53P` has a binding fitness of -1.52 natural log.
For `R53L`, the binding fitness was -1.52 natural log.
For `N42V`, the binding fitness was -1.54 natural log.
For `S43F`, the binding fitness was -1.38 natural log.
With `A40Y` the binding fitness was -1.37 natural log.
For `S47V`, the binding fitness was -1.37 natural log.

Study 3 — effect on: enzyme activity; action: inhibitor; tested at: 0.5 µM; reference: control
Target: Receptor-interacting serine/threonine-protein kinase 2 (RIPK2, Homo sapiens, UniProt O43353)
Sequence of UniProt O43353 (whole entry, looked up): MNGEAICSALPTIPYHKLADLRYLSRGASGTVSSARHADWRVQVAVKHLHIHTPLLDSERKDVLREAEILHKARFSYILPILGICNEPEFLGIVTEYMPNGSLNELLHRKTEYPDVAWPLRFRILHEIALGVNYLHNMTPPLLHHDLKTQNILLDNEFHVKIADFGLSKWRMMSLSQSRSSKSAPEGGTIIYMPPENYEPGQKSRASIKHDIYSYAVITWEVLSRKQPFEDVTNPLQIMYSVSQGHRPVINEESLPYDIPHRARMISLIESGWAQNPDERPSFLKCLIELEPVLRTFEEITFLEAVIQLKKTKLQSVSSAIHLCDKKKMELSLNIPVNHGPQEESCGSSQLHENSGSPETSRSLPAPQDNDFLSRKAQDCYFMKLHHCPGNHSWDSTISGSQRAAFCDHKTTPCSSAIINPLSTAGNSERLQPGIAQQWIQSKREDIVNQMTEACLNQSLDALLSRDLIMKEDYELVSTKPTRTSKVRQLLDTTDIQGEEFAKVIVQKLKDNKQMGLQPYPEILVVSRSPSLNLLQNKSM
The remaining activity of Cc1cccc(-c2[nH]c(C(C)(C)C)nc2-c2ccc3c(c2)OCO3)n1 is reported as 79%.
Cn1sc(=O)n(Cc2ccccc2)c1=O gave a remaining activity of 85.4%.
The remaining activity of CC(C)[C@H](CO)Nc1nc(Nc2cc(N)cc(Cl)c2)c2ncn(C(C)C)c2n1 is reported as 87.7%.
For COc1ccc(C(=O)Nc2sc3c(c2C(N)=O)CCCC3)cc1OC, the remaining activity was 76.5%.
With NCCNc1ncc(C(N)=O)c(Nc2cccc(C(F)(F)F)c2)n1 the remaining activity was 93.2%.
The remaining activity of CCOC(=O)c1c(C)[nH]c(/C=C2\C(=O)Nc3ccccc32)c1C is reported as 88.3%.
O=C(Nc1cccc(Nc2cc(Nc3cccc(C(F)(F)F)c3)ncn2)c1)C1CC1 has a remaining activity of 80.8%.
For Nc1ccc2ncnc(NCCc3ccc(Oc4ccccc4)cc3)c2c1, the remaining activity was 94.6%.
The remaining activity of O=C(CCCc1ccc(-c2ccccc2F)cc1)Nc1ccc(O)cc1 is reported as 84.5%.
C#Cc1cccc(Nc2ncnc3cc(OCCOC)c(OCCOC)cc23)c1 has a remaining activity of 57.9%.
O=c1c2ccccc2[nH]c(=S)n1CCN1CCC(=C(c2ccc(F)cc2)c2ccc(F)cc2)CC1 has a remaining activity of 93.1%.
Nc1[nH]nc2nc3ccccc3nc12 has a remaining activity of 81.1%.
COc1ccc(CNC(=O)Nc2ncc([N+](=O)[O-])s2)cc1 gave a remaining activity of 82.8%.

Study 4 — effect on: cell-free assay; technique: competition with immobilised ligand; tested at: 1 µM
Structure (SMILES): CN(C)c1ncnc(-c2ccc3nc(Nc4cc(CN5CCN(C(=O)CC(F)(F)F)CC5)ccn4)[nH]c3c2)c1Cl
For TGF-beta receptor type-2 (TGFBR2, Homo sapiens, UniProt P37173): remaining binding read 85%.
For Mitogen-activated protein kinase 13 (MAPK13, Homo sapiens, UniProt O15264): remaining binding read 100%.
Serine/threonine-protein kinase SIK3 (SIK3, Homo sapiens, UniProt Q9Y2K2) — remaining binding: 83%.
Myosin-IIIa (MYO3A, Homo sapiens, UniProt Q8NEV4) — remaining binding: 100%.
The remaining binding was 86% (Mitogen-activated protein kinase kinase kinase 13 (MAP3K13, Homo sapiens, UniProt O43283)).
The remaining binding was 80% (Tyrosine-protein kinase BTK (BTK, Homo sapiens, UniProt Q06187)).
For Cyclin-dependent kinase 16 (CDK16, Homo sapiens, UniProt Q00536): remaining binding read 74%.
For Tyrosine-protein kinase CSK (CSK, Homo sapiens, UniProt P41240): remaining binding read 84%.
The remaining binding was 87% (Receptor tyrosine-protein kinase erbB-2 (ERBB2, Homo sapiens, UniProt P04626)).
The remaining binding was 100% (Serine/threonine-protein kinase D1 (PRKD1, Homo sapiens, UniProt Q15139)).
For Myosin-IIIb (MYO3B, Homo sapiens, UniProt Q8WXR4): remaining binding read 100%.
For Tyrosine-protein kinase JAK2, JH1 (JAK2, Homo sapiens, UniProt O60674): remaining binding read 44%.
For Phosphatidylinositol 4,5-bisphosphate 3-kinase catalytic subunit alpha isoform (PIK3CA, Homo sapiens, UniProt P42336): remaining binding read 100%.
For Tyrosine-protein kinase ABL1, non-phosphorylated (ABL1, Homo sapiens, UniProt P00519, Q252H): remaining binding read 22%.
The remaining binding was 100% (Tyrosine-protein kinase ITK/TSK (ITK, Homo sapiens, UniProt Q08881)).
The remaining binding was 100% (Proto-oncogene tyrosine-protein kinase receptor Ret (RET, Homo sapiens, UniProt P07949, V804L)).
The remaining binding was 100% (Proto-oncogene tyrosine-protein kinase ROS (ROS1, Homo sapiens, UniProt P08922)).
It gave 51% for remaining binding (Mitogen-activated protein kinase 10 (MAPK10, Homo sapiens, UniProt P53779)).
Serine/threonine-protein kinase PAK 3 (PAK3, Homo sapiens, UniProt O75914) — remaining binding: 81%.
For Hormonally up-regulated neu tumor-associated kinase (HUNK, Homo sapiens, UniProt P57058): remaining binding read 80%.

A few entries again (study 4):
It gave 51% for remaining binding (Mitogen-activated protein kinase 10 (MAPK10, Homo sapiens, UniProt P53779)).
The remaining binding was 80% (Tyrosine-protein kinase BTK (BTK, Homo sapiens, UniProt Q06187)).
For Myosin-IIIb (MYO3B, Homo sapiens, UniProt Q8WXR4): remaining binding read 100%.
For Tyrosine-protein kinase JAK2, JH1 (JAK2, Homo sapiens, UniProt O60674): remaining binding read 44%.
For Mitogen-activated protein kinase 13 (MAPK13, Homo sapiens, UniProt O15264): remaining binding read 100%.
For Phosphatidylinositol 4,5-bisphosphate 3-kinase catalytic subunit alpha isoform (PIK3CA, Homo sapiens, UniProt P42336): remaining binding read 100%.
The remaining binding was 100% (Proto-oncogene tyrosine-protein kinase ROS (ROS1, Homo sapiens, UniProt P08922)).
For Tyrosine-protein kinase ABL1, non-phosphorylated (ABL1, Homo sapiens, UniProt P00519, Q252H): remaining binding read 22%.
